Assay results gathered from unrelated publications.
Cell line: LOX IMVI

SMILES	assay	conditions	endpoint	value
COc1cc(CNC(=O)C[C@H](C)CCC=C(C)C)ccc1OCc1cn(-c2ccc(Cl)c(Cl)c2)nn1	SRB	10 µM, 48 h	growth	50.6%
CCC(=C(c1ccc(Cl)cc1)c1ccc(OCCCN(C)C)cc1)c1ccc(OC)cc1	cell growth or viability, SRB		GI50	870 nM
COc1cc(CNC(=O)C[C@H](C)CCC=C(C)C)ccc1OCc1cn(-c2ccccc2)nn1	SRB	10 µM, 48 h	growth	92.3%
CC(=O)OC[C@H]1O[C@@H](Sc2sc(C(=O)c3ccc(C)cc3)c(N)c2-c2nc3ccccc3s2)[C@H](OC(C)=O)[C@@H](OC(C)=O)[C@@H]1OC(C)=O	SRB	10 µM, 48 h	growth	54.5%
COc1cc(CNC(=O)C[C@H](C)CCC=C(C)C)ccc1OCc1cn(-c2cccc(C(F)(F)F)c2)nn1	SRB	10 µM, 48 h	growth	80.7%
COc1ccc(C2=Nn3c(NN=C4C(=O)N(Cc5ccccc5)c5ccc(Cl)cc54)nnc3SC2)cc1	cell growth or viability, SRB	10 µM	inhibition	37%
CC/C=C\C/C=C\C/C=C\C/C=C\C/C=C\C/C=C\CCC(=O)Nc1ccn(C2OC(CO)C(O)C2(F)F)c(=O)n1 (stereo not shown)	NCI60 screen		TGI	1.07 µM
CC(Cc1ccc(Cl)cc1)=C(c1ccc(Cl)cc1)c1ccc(OCCN(C)C)cc1	cell growth or viability, SRB		GI50	3020 nM
C1=[N+]2CCCC[N+]3=Cc4ccc5[n]4[Au-]23[n]2c1ccc2-c1nc2ccccc2nc1-5.F[P-](F)(F)(F)(F)F	cell growth		IC50	1700 nM
CC(=O)OC[C@H]1O[C@@H](Sc2sc(C(=O)c3ccc(Br)cc3)c(N)c2-c2nc3ccccc3s2)[C@H](OC(C)=O)[C@@H](OC(C)=O)[C@@H]1OC(C)=O	SRB	10 µM, 48 h	growth	37.1%

Some of these lines once more:
SMILES	assay	conditions	endpoint	value
CC(Cc1ccc(Cl)cc1)=C(c1ccc(Cl)cc1)c1ccc(OCCN(C)C)cc1	cell growth or viability, SRB		GI50	3020 nM
